Measurements collected from several papers.
Each numbered part is a random draw from the data of one study; scales do not carry over between parts.

Block 1
Target: Prothrombin, mature alpha-thrombin (F2, Homo sapiens, UniProt P00734)
Technique: aptamer microarray, sandwich
Molecule type: DNA with 2'F-ANA
Sample: in vitro
Concentration: 200 nM
Setting: whole 15-mer aptamer, many near background
Added: Cy3 exosite-II aptamer, 400 nM
Direction: higher = stronger binding
Under “mean fluorescence intensity”, `GGTTGGTGTGGTTGG (2'F-ANA at 1 3 7 8 9 10 13)` is recorded as 83.4 a.u.
Under “mean fluorescence intensity”, `GGTTGGTGTGGTTGG (2'F-ANA at 2 8 9 11 12 15)` is recorded as 662 a.u.
`GGTTGGTGTGGTTGG (2'F-ANA at 4 9 11 13)`: “mean fluorescence intensity” 169 a.u.
For `GGTTGGTGTGGTTGG (2'F-ANA at 2 5 7 8 13 14)`, “mean fluorescence intensity” read 123 a.u.

Block 2
Target: POU domain, class 5, transcription factor 1, POU domain (Pou5f1, Mus musculus, UniProt P20263, residues 131-289)
Sequence of UniProt P20263 (131-289, looked up): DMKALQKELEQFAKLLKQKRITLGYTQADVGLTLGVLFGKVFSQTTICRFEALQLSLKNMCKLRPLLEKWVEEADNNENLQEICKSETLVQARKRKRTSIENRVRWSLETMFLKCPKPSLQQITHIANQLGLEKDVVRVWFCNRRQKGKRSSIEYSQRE
Technique: Spec-seq
Molecule type: double-stranded DNA, one strand shown
Sample: in vitro
Concentration: not given
Setting: whole probe, mean of replicates
Baseline: not given
Direction: lower = stronger binding
`GAGTCGTCTCGTCAGCACATGATCATCCGTAGAGCACTCAGGTC`: “relative binding energy” 0.426 ln ratio.
For `GAGTCGTCTCGTCAGCACGGCTTAATCCGTAGAGCACTCAGGTC`, “relative binding energy” read 0.639 ln ratio.
`GAGTCGTCTCGTCAGCACCGGCTAATCCGTAGAGCACTCAGGTC` — result for “relative binding energy”: 0.854 ln ratio.
Under “relative binding energy”, `GAGTCGTCTCGTCAGCACATTACCATCCGTAGAGCACTCAGGTC` is recorded as -2 ln ratio.

Block 3
Target: Ras GTPase-activating protein-binding protein 1, full length (G3BP1, Homo sapiens, UniProt Q13283)
Sequence of UniProt Q13283 (whole entry, looked up): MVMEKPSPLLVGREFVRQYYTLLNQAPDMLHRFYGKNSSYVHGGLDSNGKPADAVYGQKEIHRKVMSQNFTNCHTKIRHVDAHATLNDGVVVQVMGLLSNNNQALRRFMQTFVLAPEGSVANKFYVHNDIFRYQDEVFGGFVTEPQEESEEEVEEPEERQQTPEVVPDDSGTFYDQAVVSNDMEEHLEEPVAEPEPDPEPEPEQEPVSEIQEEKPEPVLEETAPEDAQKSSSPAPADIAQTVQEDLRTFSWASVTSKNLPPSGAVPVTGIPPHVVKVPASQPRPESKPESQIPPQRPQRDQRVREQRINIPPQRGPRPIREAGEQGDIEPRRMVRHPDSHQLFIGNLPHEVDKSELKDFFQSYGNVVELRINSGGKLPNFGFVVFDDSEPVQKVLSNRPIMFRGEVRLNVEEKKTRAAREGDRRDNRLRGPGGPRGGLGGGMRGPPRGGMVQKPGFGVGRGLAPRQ
Technique: RNA Bind-n-Seq
Molecule type: RNA
Sample: in vitro
Concentration: 200 nM
Setting: whole 134-nt RNA, ends assumed
Added: 150 mM KCl
Baseline: input library
Direction: higher = stronger binding
`GGGAGUUCUACAGUCCGACGAUCCACAGACAACACGCACCCACACAGACACAGAGGGAAGGGGUUGGGAUGGGGACAGGGUGCACAGCAGGGCGGGGUAGGAGCCCAGCCCCUUGGAAUUCUCGGGUGUCAAGG` has a log2 enrichment of 1.78.
With `GGGAGUUCUACAGUCCGACGAUCGUCCUGUGCUACACAUCGUAUGUACCGAAUCAAACCCCCCCAAAUUUAAACCCCCAAAAAAGUAUUAUGUUACGCCGUUCGGAUCUGCACUGGAAUUCUCGGGUGUCAAGG` the log2 enrichment was -0.0255.
`GGGAGUUCUACAGUCCGACGAUCUCCUCAAGUCCUGUGCUACACAUCGUAUGUACCGAAUCGGGUGGUGGGUGGAAAGUAUUAUGUUACGCCGUUCGGAUCUGCACUUCCAGCUGGAAUUCUCGGGUGUCAAGG` has a log2 enrichment of 0.04.

Other studies, line by line
For `PhoQ, residues 284 288 289 292 302 303 TLMATV`, the fold induction was 1.38 (PhoP, residues 12 14 15 18 19 LHATL (Escherichia coli, UniProt P23836); Sort-seq, refers to: YFP reporter; E. coli; PhoQ-PhoP variant library, added: 10 µM Mg2+; baseline: high Mg2+ state, higher = stronger signaling).

Repeated from above (block 1):
Under “mean fluorescence intensity”, `GGTTGGTGTGGTTGG (2'F-ANA at 2 8 9 11 12 15)` is recorded as 662 a.u.
